Published values gathered from unrelated publications.
Parts stem from different laboratories: compare values within a part only. Substitutions count along the parent as printed.

Study 1
Target: ABI1, truncated, D143A, DHFR fusion (Arabidopsis thaliana)
Technique: DHFR PCA, deep sequencing
Medium: yeast
Notes: methotrexate growth selection, single substitutions
With: (+)-ABA 710 µM
Relative to: wild-type fitted maximum
Reading: higher = stronger binding
Starting sequence: PYL1, truncated, DHFR fusion (Arabidopsis thaliana); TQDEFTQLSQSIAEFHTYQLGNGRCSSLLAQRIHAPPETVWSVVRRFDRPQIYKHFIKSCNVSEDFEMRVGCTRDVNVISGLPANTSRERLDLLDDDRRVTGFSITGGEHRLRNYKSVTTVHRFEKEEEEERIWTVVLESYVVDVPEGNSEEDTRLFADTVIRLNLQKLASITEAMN; partner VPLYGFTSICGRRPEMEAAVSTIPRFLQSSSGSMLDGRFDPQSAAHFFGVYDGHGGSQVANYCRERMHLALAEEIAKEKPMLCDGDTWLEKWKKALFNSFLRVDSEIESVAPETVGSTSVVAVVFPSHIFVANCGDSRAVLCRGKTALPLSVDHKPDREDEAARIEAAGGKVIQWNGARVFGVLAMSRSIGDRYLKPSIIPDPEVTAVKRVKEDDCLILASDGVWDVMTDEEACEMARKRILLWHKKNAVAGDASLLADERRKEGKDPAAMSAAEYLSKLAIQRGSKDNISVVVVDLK
Change | relative binding score [%]
L94A | 63.9
E128N | 108
V100R | 90.5
K126W | 96.7
K54T | -22.3
G108M | 40.8
T120L | -0.975
V121E | 6.25
E109P | 83.7
M68Q | 95.5
R49L | 87.2
L94K | 51.4

Study 2
Target: Histone acetyltransferase KAT6A, winged helix 1, GST fusion (KAT6A, Homo sapiens, UniProt Q92794, residues 1-85)
Technique: protein binding microarray
Molecule type: double-stranded DNA, one strand shown
Medium: in vitro
Concentration: not given
Notes: 8-mer, flanks averaged, mean of 2 arrays, mostly near background
Relative to: not given
Reading: higher = stronger binding
Construct (chain): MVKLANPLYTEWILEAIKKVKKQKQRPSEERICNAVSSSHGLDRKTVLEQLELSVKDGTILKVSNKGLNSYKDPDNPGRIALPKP
Oligonucleotide | E-score
CTTTAGTC | -0.125
GTAAACCA | 0.0556
ATTCCCGA | 0.145
AAAGTTAC | -0.038
GTGCGTAA | 0.0281
GTACGTCA | 0.0128
AAGTTGGT | -0.294
ACAGCGCA | 0.222
CACGATCA | -0.147
ACGTGCTG | -0.141
CGGCTGAC | 0.285
CGCAGATC | 0.197
AGGGTAAG | -0.207
TCCTGTAA | -0.107
AACGTGAG | -0.143
AAACTGCA | -0.201
ACATTGGA | -0.0464

Study 3
Target: RING finger protein unkempt homolog, zinc fingers 1-6, SBP tag (UNK, Homo sapiens, UniProt Q9C0B0, residues 30-357)
Chain of UniProt Q9C0B0 (30-357, looked up): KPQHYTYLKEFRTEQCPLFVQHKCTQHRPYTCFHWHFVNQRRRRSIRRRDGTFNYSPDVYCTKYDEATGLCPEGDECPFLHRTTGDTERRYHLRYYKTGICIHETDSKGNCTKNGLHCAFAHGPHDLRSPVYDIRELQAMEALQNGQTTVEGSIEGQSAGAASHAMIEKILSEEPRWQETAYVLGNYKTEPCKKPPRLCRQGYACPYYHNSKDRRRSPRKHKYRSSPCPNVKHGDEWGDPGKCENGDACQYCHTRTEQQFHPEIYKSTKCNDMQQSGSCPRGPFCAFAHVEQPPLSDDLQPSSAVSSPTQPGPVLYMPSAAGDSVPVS
Technique: RNA Bind-n-Seq
Molecule type: RNA
Medium: in vitro
Concentration: 100 nM
Notes: RNA with constant flanks, vertebrate orthologous sites, ends assumed
Relative to: input RNA pool
Reading: higher = stronger binding
Shared flanks, not repeated: GGGAGUUCUACAGUCCGACGAUC … CAACAGAGGAUUGAGCAUCA
Oligonucleotide | bound/input enrichment [ratio]
GUCUAGGUAGGGGUAACCAUUAACUUAUUUUAUAAGGAAAUGAAAUGCUGAAAAUCACAUUAGUGCCAAGUUUAGCUGGAGAACAUGAGCCCCUUUUAGGUGAUUCUCAAGUGGAACUCC | 0.469
AACCCCGAUUUUAGAUGUGAUACUUAGGCUUUCAUUCCAGUUUUUGGUUUUUGUCUUGUUUAGAUACCACUUUUAAAUUCUUGCAUUUUAGUAAGAAAGCUACCUUUUUAUGGAUGUUAG | 0.785
AAGAAUGAAUAGUAUUAAAGAAACAUUCUCGUCUUCCUUUACCUUUAAUCCCCUAAUACCUAGUCUACUUUUUAAAUUUUCAGACUUCACUGCUUUUUGAAUUCAUAAUUCUAAUUUUCA | 3.12
GUGGGAAAUAUUCUGGGGAGUCGCUGGACACUUAGCAUUGUUUGGUUUAUGAUUCUGACAAUAGAUAGGCUUGUGGGAUUUUUGUUUCUGUUUUUUUUUUUAAUUUAAUGAUAUUAAAAC | 1.53
CUCUCUUAGCGAUAGUAUUCCAUCUGUAGCAGAUUCGCACUCGAGUCAUUUUUCUGAGUUUAGUUGCUCAGAUAUGGAAAGUAUGAAAACUUCCUGUAGCCAUGGUUCCAGUGACUAUCA | 0.517
CUGUUGUUAAGCACUGUGUUCCAGACCUUGUCUGACUUUAGUGUAACCUAGGAGAUUUUAUAGUUUUAUUUUAAUGAAACCCUGAUUGGCACAGAGCAGUGGGAAAAGCAGUGUCUUUCA | 2.34
UAUAAGAACUCUUGAAGUCUUAGGGGUUAUAAAAAUAUAUAUCUGAAUUGUAAGAGCUGUUAGCACAGUUUUUUUUUUUUUUUUUUUUAAGCACUUGUUUGGGUACAAGGCAUUUCUGAA | 1.75

Study 4
Target: Interferon regulatory factor 5, full length, phosphomimetic (IRF5, Homo sapiens, UniProt Q13568-2, residues 1-514, S451D/S453D/S456D/S462D)
Technique: protein-binding microarray
Molecule type: double-stranded DNA, one strand shown
Medium: in vitro
Concentration: 940 nM top
Notes: 60-bp whole probe
With: salmon DNA 0.4 mg/ml
Relative to: random background probes
Reading: higher = stronger binding
Shared flanks, not repeated: GCCTAGCAC … GTCTTGATTCGCTTGACGCTGCTG
Oligonucleotide | fitted relative affinity [z-score]
GACGGTTCTGGTTTCGGGACGTGCTAG | 4.33
GACGGTATCGTTCTCGGGACGTGCTAG | 4.46
TTAGCACTGGGGTTTCGATTAGTGCTA | 5.5
TCAGGTATCGACTATCGGTTAGTGCTA | 5.12
TCTAATCTCACTCTGTCCCTGTGCTAG | 1.99
TTAGGTATACTACTGCTTTAGTGCTAG | -0.477
GAAGGTTTCGGTATCGGGACGTGCTAG | 12.4
GACGTTTTCCTTCTCCTGACGTGCTAG | 0.901

Excerpt of the above (study 1):
Change | relative binding score [%]
L94K | 51.4
V100R | 90.5
K54T | -22.3
T120L | -0.975
